Measured values from different studies.
Each numbered part is a random draw from the data of one study; scales do not carry over between parts.

Series 1
Target: Interferon regulatory factor 7, full length, phosphomimetic (IRF7, Homo sapiens, UniProt Q92985, residues 1-503, S101K/S471D/S472D/S475D/S476D/S477D/S483D/S484D/S487D)
Technique: protein-binding microarray
Molecule type: double-stranded DNA, one strand shown
Sample: in vitro
Tested at: 250 nM
Setting: 60-bp whole probe
Added: salmon DNA 0.4 mg/ml
Reference: random background probes
Direction: higher = stronger binding
Shared flanks, not repeated: GCCTAGCAC … GTCTTGATTCGCTTGACGCTGCTG
Construct (chain): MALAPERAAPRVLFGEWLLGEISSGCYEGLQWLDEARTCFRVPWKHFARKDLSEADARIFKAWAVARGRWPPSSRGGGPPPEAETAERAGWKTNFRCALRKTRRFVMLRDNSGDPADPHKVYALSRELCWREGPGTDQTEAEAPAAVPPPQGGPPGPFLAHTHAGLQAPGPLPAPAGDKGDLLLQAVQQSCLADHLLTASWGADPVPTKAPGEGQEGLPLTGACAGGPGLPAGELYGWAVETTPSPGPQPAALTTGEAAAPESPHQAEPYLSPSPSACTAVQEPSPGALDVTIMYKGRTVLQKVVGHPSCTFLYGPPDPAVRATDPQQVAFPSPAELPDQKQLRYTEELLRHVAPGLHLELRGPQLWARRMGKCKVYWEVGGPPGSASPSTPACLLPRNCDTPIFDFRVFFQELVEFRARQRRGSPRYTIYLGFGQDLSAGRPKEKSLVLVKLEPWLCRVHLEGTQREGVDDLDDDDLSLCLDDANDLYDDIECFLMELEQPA
The log fluorescence of `TCAAAATTCTAATTAGAACTGTGCTAG` is reported as 0.167 z-score.
For `TTAGGTTCCCATTTCCTTTAGTGCTAG`, the log fluorescence was 3.53 z-score.
For `TCACATCTTGTTCCCAGACTGTGCTAG`, the log fluorescence was 1.17 z-score.
With `TTAGATCTCAGAATGGATTAGTGCTAG` the log fluorescence was 0.0582 z-score.
The log fluorescence of `GACCGTTTCGGGTATCGGGACGTGCTA` is reported as 3.72 z-score.
For `TGGCCTCTAGGTTTTCTGGAGTGCTAG`, the log fluorescence was -0.918 z-score.
`TTTTTTTTTTTTTTTTTACTGTGCTAG` has a log fluorescence of 0.593 z-score.
The log fluorescence of `TTAGGTTTCAACACTGGGTTAGTGCTA` is reported as 0.0136 z-score.
The log fluorescence of `AGCAAGCCCCTTCCTTTCGGGTGCTAG` is reported as -0.744 z-score.
For `TTAGGTTTCGGGACTGGATTAGTGCTA`, the log fluorescence was 4.22 z-score.

Series 2
Target: Centromere-binding protein 1, full length, N-terminal tag (CBF1, Saccharomyces cerevisiae, UniProt P17106, residues 1-351)
Chain of UniProt P17106 (whole entry, looked up): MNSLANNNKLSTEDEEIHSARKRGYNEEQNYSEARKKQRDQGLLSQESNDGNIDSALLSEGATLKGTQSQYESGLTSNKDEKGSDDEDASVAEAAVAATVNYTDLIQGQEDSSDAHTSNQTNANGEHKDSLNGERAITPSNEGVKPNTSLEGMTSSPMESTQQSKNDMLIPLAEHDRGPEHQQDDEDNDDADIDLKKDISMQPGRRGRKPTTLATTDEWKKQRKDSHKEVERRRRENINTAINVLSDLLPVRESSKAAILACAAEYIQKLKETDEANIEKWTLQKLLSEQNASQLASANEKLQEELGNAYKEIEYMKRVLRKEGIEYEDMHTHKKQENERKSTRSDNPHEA
Technique: protein-binding microarray
Molecule type: double-stranded DNA, one strand shown
Sample: in vitro
Tested at: 0.8 µM
Setting: whole 60-bp probe, no competitor
Direction: higher = stronger binding
The fluorescence intensity of `GAATATACGTCTATTAAGGTGACTGACAAGGATTAGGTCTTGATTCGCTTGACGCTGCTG` is reported as 518 a.u.
For `GAAGTAAGATGATACCACGCAACTTTGTAATGATAGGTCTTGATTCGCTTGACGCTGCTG`, the fluorescence intensity was 554 a.u.
The fluorescence intensity of `TGTACGAAGCTATAGCACGAAAGTATAGTAGTTAGGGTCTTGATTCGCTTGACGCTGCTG` is reported as 504 a.u.
`GAATTTGAATATATACGCCTGATGACGTACGTTTAGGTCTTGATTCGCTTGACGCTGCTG` has a fluorescence intensity of 516 a.u.
`GAAGTATCATAGTAAAACGTGTGTTGAATGAAGTAGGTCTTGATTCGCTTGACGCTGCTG` gave a fluorescence intensity of 613 a.u.
With `CTACATAAGGGTTGTCCCGTGGTCGGAGCCCTTTTCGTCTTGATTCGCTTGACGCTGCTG` the fluorescence intensity was 623 a.u.
`GAATGCCTTGACATACACGTGTCTATTTCTTTTTAGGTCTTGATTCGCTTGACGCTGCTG` has a fluorescence intensity of 5120 a.u.
For `CTAGCGATCGTTTATCACGACAAGCCCAATTTTTTCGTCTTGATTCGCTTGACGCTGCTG`, the fluorescence intensity was 552 a.u.
`GAACATGAAAAGGTCCACGTTGCTGTCGCTGGATAGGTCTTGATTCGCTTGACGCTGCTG` has a fluorescence intensity of 590 a.u.

Series 3
Target: RNA binding protein fox-1 homolog 2, RRM domain, GST-SBP tag (RBFOX2, Homo sapiens, UniProt O43251-10, residues 100-194)
Technique: RNA Bind-n-Seq
Molecule type: RNA
Sample: in vitro
Tested at: 365 nM
Setting: natural RNA segment, single round, ends assumed
Reference: no-protein control
Direction: higher = stronger binding
Construct (chain): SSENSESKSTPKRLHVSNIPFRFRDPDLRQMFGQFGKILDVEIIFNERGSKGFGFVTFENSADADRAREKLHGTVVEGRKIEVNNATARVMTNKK
Under “RBNS enrichment (R)”, `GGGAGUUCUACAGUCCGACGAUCAGACGAAAUAGUGACAUAAUAUAUUCUAUUUUUAUACUCUUCCUAUUUUUGUAGUGACCUGUUUAUGAGAUGCUGGUUUUCUACCCAACGGCCCUGCAGCCAGCUCACGUUGGAAUUCUCGGGUGCCAA` is recorded as 0.227.
Under “RBNS enrichment (R)”, `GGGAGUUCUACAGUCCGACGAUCUUAUAGCAACUAUAAAGUAUCAAUAAUUUUAAAUACUCAUCUCUCUUUUACUAAGAAGGGAUUUUUAAAUAUGGUGUCUACCUGGUAUCUCUCUCCCAAUAAGAAGCAGGUGGAAUUCUCGGGUGCCAA` is recorded as 0.632.
`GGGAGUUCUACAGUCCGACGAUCGAACUGAUUUUAAUAAAAAUAUUCUGUGUAAAAAGUACUCAGAAAAACAUCUAAAGCUGUUGGAGAAGAGGGACUCAUAUAAAUAGUUGGAUUGCGUUUUGCUUUUUAUUUGGAAUUCUCGGGUGCCAA` — result for “RBNS enrichment (R)”: 1.44.
Under “RBNS enrichment (R)”, `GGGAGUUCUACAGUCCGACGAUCGUUCCAAGGAAACAAUUAUUGCCUGAUGACCACUUCCAUUUUGUAUACACUCUUUGGUUCGUAUAGGCCAUAUUCCAACUGGCUUUUUAGUAAUAGAAAUCCAGUAUAUAUGGAAUUCUCGGGUGCCAA` is recorded as 0.26.
For `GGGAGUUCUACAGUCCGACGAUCUUUAGAUCCUUGGAGACUUUUCCUGUAUGCCUUCCAAAACUUCCUGCUCACUUAGAUGUACCUUGUGCUUUGAAGAUUUCUUUGAUGCAGUCUUUGUAACAAAUAAUUUUUGGAAUUCUCGGGUGCCAA`, “RBNS enrichment (R)” read 0.467.
`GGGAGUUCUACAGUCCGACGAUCACCUGGUGAUGCAAUCUUUUUUUUUUUUAAUUUAAUUUAAUUUUAAAAUAAAUGCUGCAUUGGUAAAGCUGGCAGUUGAAACCAGUUGGACGGCCCAGCUUGCGUCUCUUUGGAAUUCUCGGGUGCCAA`: “RBNS enrichment (R)” 0.553.
For `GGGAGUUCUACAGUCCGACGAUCCCAGCUAAUUUCUGUAUUUUAGUAGAGACAAGGUUUCACCAUGUUGGCCAGGCUGGUCUCGAACUCCUGGCCUCAAGUGAUCCACCUGCCUUGGCCUCCCAAAGUGCUCCUGGAAUUCUCGGGUGCCAA`, “RBNS enrichment (R)” read 0.319.
`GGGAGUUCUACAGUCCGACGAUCCUUGACCGAAAGUUACAAGGACCCCAACCCCUUUGUCCUCUCUACCCACAGAUGGCCCUGGGAAUCAAUUCCUCAGGAAUUGCCCUCAAGAACUCUGCUUCUUGCUUUGCUGGAAUUCUCGGGUGCCAA` — result for “RBNS enrichment (R)”: 0.399.
Under “RBNS enrichment (R)”, `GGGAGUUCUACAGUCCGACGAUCGCCCCUCAAAGCCACCUGAACCGUCGUCAACUUACCCAGCCUGUCUCCAUUAAACACCAGGAACCAACUGAGUGUUCUGUUUCUAACUGCACAGCACAAAGCUAGGGCUCUGGAAUUCUCGGGUGCCAA` is recorded as 0.444.
`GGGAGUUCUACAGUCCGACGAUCUUUGAAGUUCCAGUCCUCCCUUUGGAGUGGACAUUUAAAAUCUGCAGCCAUUCCUUGCUUCAGUUCCCUUCCACCACCCAGGGCUGGCUUUCCUAUAAGCCACCUCCAGGUGGAAUUCUCGGGUGCCAA` — result for “RBNS enrichment (R)”: 0.199.
Under “RBNS enrichment (R)”, `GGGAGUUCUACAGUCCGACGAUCAACACUUUUAGAGAUCCUCUGUAGAAAGUCACAGGAAAGAGAAAGAUAUUGUUCAGCUUGAGUUGGGUCAUGCCAAACAGUCAUUUAUUUGGUGGGUAGAAAUACAGUCAUGGAAUUCUCGGGUGCCAA` is recorded as 13.2.
`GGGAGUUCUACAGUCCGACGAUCAACAAUUCAGACAGAAAGGGAAAGUCCCUGAGGCAAAGUCUCUCUAGCCAGAGACCUAUGCAUCCCGAAUGGCCACUAAGGCAGUCCUGAAGGGCCCUCCAGGGUGAUGAUGGAAUUCUCGGGUGCCAA` — result for “RBNS enrichment (R)”: 0.217.

Single results of other studies
For `PhoQ, residues 284 288 289 292 302 303 AGHLVA`, the fold induction was 0.537 (PhoP, residues 12 14 15 18 19 TPLRH (Escherichia coli, UniProt P23836); Sort-seq, refers to: YFP reporter; E. coli; PhoQ-PhoP variant library, added: 10 µM Mg2+; reference: high Mg2+ state, higher = stronger signaling).

A few entries again (series 3):
For `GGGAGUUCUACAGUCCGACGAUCCCAGCUAAUUUCUGUAUUUUAGUAGAGACAAGGUUUCACCAUGUUGGCCAGGCUGGUCUCGAACUCCUGGCCUCAAGUGAUCCACCUGCCUUGGCCUCCCAAAGUGCUCCUGGAAUUCUCGGGUGCCAA`, “RBNS enrichment (R)” read 0.319.
Under “RBNS enrichment (R)”, `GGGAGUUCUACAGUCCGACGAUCAACACUUUUAGAGAUCCUCUGUAGAAAGUCACAGGAAAGAGAAAGAUAUUGUUCAGCUUGAGUUGGGUCAUGCCAAACAGUCAUUUAUUUGGUGGGUAGAAAUACAGUCAUGGAAUUCUCGGGUGCCAA` is recorded as 13.2.
Under “RBNS enrichment (R)”, `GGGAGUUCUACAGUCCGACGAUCGCCCCUCAAAGCCACCUGAACCGUCGUCAACUUACCCAGCCUGUCUCCAUUAAACACCAGGAACCAACUGAGUGUUCUGUUUCUAACUGCACAGCACAAAGCUAGGGCUCUGGAAUUCUCGGGUGCCAA` is recorded as 0.444.
